{"data": "Measurements collected from several papers", "note": "A part holds a random share of what one study measured."}
{"data": "Block 1", "target": "Sal-like protein 4, full length isoform A (SALL4, Homo sapiens, UniProt Q9UJQ4, residues 1-1053)", "method": "universal PBM", "form": "double-stranded DNA, one strand shown", "sample": "in vitro", "concentration": "600 nM", "notes": "8-mer, flanks averaged, mean of replicates", "direction": "higher = stronger binding", "UniProt Q9UJQ4, sequence (whole entry, looked up)": "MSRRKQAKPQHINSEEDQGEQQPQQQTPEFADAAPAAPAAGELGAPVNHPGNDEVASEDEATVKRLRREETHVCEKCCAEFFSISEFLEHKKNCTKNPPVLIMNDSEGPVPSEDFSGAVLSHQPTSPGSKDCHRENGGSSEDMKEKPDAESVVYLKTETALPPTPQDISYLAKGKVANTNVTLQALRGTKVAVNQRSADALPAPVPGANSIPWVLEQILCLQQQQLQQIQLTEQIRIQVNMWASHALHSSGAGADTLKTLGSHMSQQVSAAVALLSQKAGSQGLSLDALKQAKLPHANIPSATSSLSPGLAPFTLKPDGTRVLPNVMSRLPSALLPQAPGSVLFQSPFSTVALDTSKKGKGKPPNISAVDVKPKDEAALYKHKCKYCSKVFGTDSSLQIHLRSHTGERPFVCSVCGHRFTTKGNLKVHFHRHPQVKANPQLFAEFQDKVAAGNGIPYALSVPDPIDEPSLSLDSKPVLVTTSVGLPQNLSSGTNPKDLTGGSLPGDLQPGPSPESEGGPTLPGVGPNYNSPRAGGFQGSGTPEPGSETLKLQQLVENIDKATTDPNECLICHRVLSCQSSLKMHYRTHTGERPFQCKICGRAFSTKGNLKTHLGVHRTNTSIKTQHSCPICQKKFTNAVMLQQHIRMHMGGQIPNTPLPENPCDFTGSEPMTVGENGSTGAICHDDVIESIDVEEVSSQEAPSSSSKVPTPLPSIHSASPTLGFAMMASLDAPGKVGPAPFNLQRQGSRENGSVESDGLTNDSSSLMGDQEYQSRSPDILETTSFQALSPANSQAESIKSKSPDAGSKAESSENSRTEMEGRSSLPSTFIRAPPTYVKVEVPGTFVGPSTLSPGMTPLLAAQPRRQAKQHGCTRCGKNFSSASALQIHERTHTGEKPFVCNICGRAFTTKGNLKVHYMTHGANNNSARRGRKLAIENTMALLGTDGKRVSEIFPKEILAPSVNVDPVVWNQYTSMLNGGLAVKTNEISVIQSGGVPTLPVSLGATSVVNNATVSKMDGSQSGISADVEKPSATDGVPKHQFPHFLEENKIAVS"}
{"Oligonucleotide": "GGTCATTA", "E-score": 0.0397}
{"Oligonucleotide": "ACGCCGCA", "E-score": -0.206}
{"Oligonucleotide": "ACTGCGAT", "E-score": -0.0405}
{"data": "Block 2", "target": "Centromere-binding protein 1, full length, N-terminal tag (CBF1, Saccharomyces cerevisiae, UniProt P17106, residues 1-351)", "method": "protein-binding microarray", "form": "double-stranded DNA, one strand shown", "sample": "in vitro", "concentration": "0.8 µM", "notes": "whole 60-bp probe, no competitor", "direction": "higher = stronger binding", "UniProt P17106, sequence (whole entry, looked up)": "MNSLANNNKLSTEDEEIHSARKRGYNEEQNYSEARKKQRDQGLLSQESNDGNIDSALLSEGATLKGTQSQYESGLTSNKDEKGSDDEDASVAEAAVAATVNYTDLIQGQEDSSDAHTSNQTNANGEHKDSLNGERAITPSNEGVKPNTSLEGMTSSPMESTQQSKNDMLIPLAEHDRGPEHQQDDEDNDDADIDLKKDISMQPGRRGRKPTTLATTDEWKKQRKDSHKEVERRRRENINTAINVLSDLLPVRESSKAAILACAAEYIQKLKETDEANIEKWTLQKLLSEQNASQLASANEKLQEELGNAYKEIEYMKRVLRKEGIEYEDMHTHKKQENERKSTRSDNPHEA"}
{"Oligonucleotide": "TGTACGAAGCTATATAATGTCACTATAGTAGTTAGGGTCTTGATTCGCTTGACGCTGCTG", "fluorescence intensity [a.u.]": 541}
{"Oligonucleotide": "GAATCTATGATCCGTCACCTATTTTTATTCTTCTAGGTCTTGATTCGCTTGACGCTGCTG", "fluorescence intensity [a.u.]": 517}
{"Oligonucleotide": "GAAAAGATCAAATGTTACGTGGTGTTGAAGAAATAGGTCTTGATTCGCTTGACGCTGCTG", "fluorescence intensity [a.u.]": 585}
{"data": "Further values, each from its own experiment", "F2 mature alpha-thrombin": "Prothrombin, mature alpha-thrombin (F2, Homo sapiens, UniProt P00734)"}
{"Substance": "GGTTGGTGTGGTTGG (2'F-ANA at 1 2 3 4 5 6 10)", "target": "F2 mature alpha-thrombin", "test": "aptamer microarray, sandwich", "system": "DNA with 2'F-ANA, in vitro", "setting": "200 nM, whole 15-mer aptamer, many near background, added: Cy3 exosite-II aptamer, 400 nM", "how to read": "higher = stronger binding", "endpoint": "mean fluorescence intensity", "value": "48.5 a.u."}
{"Substance": "PhoQ, residues 284 288 289 292 302 303 ALASRC", "target": "PhoP, residues 12 14 15 18 19 NMSFL (Escherichia coli, UniProt P23836)", "test": "Sort-seq, item: YFP reporter", "system": "E. coli", "setting": "PhoQ-PhoP variant library, added: 10 µM Mg2+", "how to read": "relative to: high Mg2+ state, higher = stronger signaling", "endpoint": "fold induction", "value": 10.1}
{"Substance": "GGTTGGTGTGGTTGG (2'F-ANA at 1 11 12 14 15)", "target": "F2 mature alpha-thrombin", "test": "aptamer microarray, sandwich", "system": "DNA with 2'F-ANA, in vitro", "setting": "200 nM, whole 15-mer aptamer, many near background, added: Cy3 exosite-II aptamer, 400 nM", "how to read": "higher = stronger binding", "endpoint": "mean fluorescence intensity", "value": "73.5 a.u."}
{"Substance": "GGTTGGTGTGGTTGG (2'F-ANA at 2 3 4 7 9 10 12 13 15)", "target": "F2 mature alpha-thrombin", "test": "aptamer microarray, sandwich", "system": "DNA with 2'F-ANA, in vitro", "setting": "200 nM, whole 15-mer aptamer, many near background, added: Cy3 exosite-II aptamer, 400 nM", "how to read": "higher = stronger binding", "endpoint": "mean fluorescence intensity", "value": "251 a.u."}
{"note": "For quick reference, copied from above (further values, each from its own experiment):"}
{"Substance": "GGTTGGTGTGGTTGG (2'F-ANA at 1 11 12 14 15)", "target": "F2 mature alpha-thrombin", "test": "aptamer microarray, sandwich", "system": "DNA with 2'F-ANA, in vitro", "setting": "200 nM, whole 15-mer aptamer, many near background, added: Cy3 exosite-II aptamer, 400 nM", "how to read": "higher = stronger binding", "endpoint": "mean fluorescence intensity", "value": "73.5 a.u."}
